# Experimental data from different studies.
# Each numbered part is a random draw from the data of one study; scales do not carry over between parts. Changes are numbered by the printed parent chain.

# Block 1
# Target: Fragile X messenger ribonucleoprotein 1, C-terminal low-complexity region (Fmr1, Mus musculus, UniProt P35922)
# Technique: RNA Bind-n-Seq
# Molecule type: RNA
# Sample: in vitro
# Tested at: 200 nM
# Setting: whole 134-nt RNA, ends assumed
# Together with: 150 mM LiCl
# Relative to: input library
# Direction: higher = stronger binding
# Each molecule: 7-deaza-guanosine replaces G
# All sequences stand within: GGGAGUUCUACAGUCCGACGAUC … UGGAAUUCUCGGGUGUCAAGG
Oligonucleotide,log2 enrichment
CUCAGACAACACGCACCCACACAGACACAGAGGGAAGGGGUUGGGAUGGGGACAGGGUGCACAGCAGGGCGGGGUAGGACCCCAGCCCCU,-1.2
UAACUUUAGAGGAGAAUCUGAUGGAUAUGGCAGUGGACGUGGAUUUGGGGAUGGCUAUAAUGGGUAUGGAGGAGGACCUGGAGGUGGCAA,0.455
UCCUGUGCUACACAUCGUAUGUACCGAAUCGGGUUUUUGGGUUUUUUUGGGUUUUUGGGAAAGUAUUAUGUUACGCCGUUCGGAUCUGCA,0.0696
UAACUUUAGAGGAUGAUCUGAUGGAUAUGGCAGUGGACGUGGAUUUGGGGAUGGCUAUAAUGGGUAUGGAGGAGGACCUGGAGGUGGCAA,0.45
AAGUCCUGUGCUACACAUCGUAUGUACCGAAUCGGGUUUGGGAGGGUUUUUUUGGGAAAGUAUUAUGUUACGCCGUUCGGAUCUGCACUU,-0.762
GCAGGAAGUAAAAACAAAUGGAAAUGCCUCGGAUAGUGGCAGGGGUGGGGGUUGCUAAGGAAAGGGUGGGAUGGGAGUGGGUAAAGAGUU,1.8
UCCUGUGCUACACAUCGUAUGUACCGAAUCGGGGUUUUUUUGGGGAAAGGGGAAAGGGGAAAGUAUUAUGUUACGCCGUUCGGAUCUGCA,-0.317

# Block 2
# Target: CCNE2, cyclin fold, Cln2 fusion (human)
# Technique: yeast growth competition, sequencing
# Sample: yeast
# Setting: strong parent motif
# Relative to: not given
# Direction: higher = stronger binding
# Parent: BRCA2 docking peptide (human); PSIKRNLLNEFDR
Variant,normalised enrichment score
PSIKRNLLMEFDR [N9M],2
PSIKRNLLNCFDR [E10C],0.302
PSIKRNLLNPFDR [E10P],1.01
PSIKRNLLDEFDR [N9D],1.67
PSRKRNLLNEFDR [I3R],0.455
PSIKRNLKNEFDR [L8K],1.08
PSIKRNLLHEFDR [N9H],2.34
PSIKRPLLNEFDR [N6P],0.457

# Block 3
# Target: ABI1, truncated, D143A, DHFR fusion (Arabidopsis thaliana)
# Technique: DHFR PCA, deep sequencing
# Sample: yeast
# Setting: methotrexate growth selection, single substitutions
# Together with: (+)-ABA 0.11 µM
# Relative to: wild-type fitted maximum
# Direction: higher = stronger binding
# Parent: PYL1, truncated, DHFR fusion (Arabidopsis thaliana); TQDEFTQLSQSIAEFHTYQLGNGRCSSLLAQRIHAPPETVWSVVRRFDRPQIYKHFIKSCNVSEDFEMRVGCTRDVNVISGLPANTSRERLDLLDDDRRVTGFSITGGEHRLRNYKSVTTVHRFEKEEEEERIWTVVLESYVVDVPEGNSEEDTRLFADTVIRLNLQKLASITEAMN; partner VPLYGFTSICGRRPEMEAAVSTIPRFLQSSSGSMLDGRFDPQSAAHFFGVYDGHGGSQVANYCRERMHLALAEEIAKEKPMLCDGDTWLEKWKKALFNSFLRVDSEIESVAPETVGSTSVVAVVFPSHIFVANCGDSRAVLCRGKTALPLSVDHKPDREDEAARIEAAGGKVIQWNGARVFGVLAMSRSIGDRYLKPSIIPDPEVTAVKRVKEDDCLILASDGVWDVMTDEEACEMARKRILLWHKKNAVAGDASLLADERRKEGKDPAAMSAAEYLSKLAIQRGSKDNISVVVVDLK
Variant,relative binding score
I57K,-0.945%
P37L,5.72%
N149K,3.74%
D48A,-4.43%
Y115E,-3.75%

# Mixed results
Substance,target,test,system,conditions,how to read,endpoint,result
"PhoQ, residues 284 288 289 292 302 303 SCEHLI","PhoP, residues 12 14 15 18 19 SMASL (Escherichia coli, UniProt P23836)","Sort-seq, refers to: YFP reporter",E. coli,"PhoQ-PhoP variant library, together with: 10 µM Mg2+","relative to: high Mg2+ state, higher = stronger signaling",fold induction,7.8

# A few entries again (block 3):
Variant,relative binding score
N149K,3.74%
D48A,-4.43%
